Assay results of several laboratories.
Each line is one published result; not all experiments were run side by side. Numbers after ± are the reported error.
SLC6A2: Sodium-dependent noradrenaline transporter (SLC6A2, Homo sapiens, UniProt P23975)
SLC6A3: Sodium-dependent dopamine transporter (SLC6A3, Homo sapiens, UniProt Q01959)
dop: Pup deamidase/depupylase (dop, Mycolicibacterium smegmatis, UniProt A0QZ49)
PA: Polymerase acidic protein (PA, Influenza A virus, UniProt C3W5S0)
rep main protease: Replicase polyprotein 1ab, main protease (rep, Severe acute respiratory syndrome coronavirus 2, UniProt P0DTD1)

CCCCC/C=C\C/C=C\C/C=C\C/C=C\CCCC(=O)N[C@H](C)CO — IC50 (Amine oxidase [flavin-containing] A (MAOA, Homo sapiens, UniProt P21397); enzyme activity, inhibitor, fluorescence): > 100000 nM
O=c1c2ccccc2[se]n1C12CC3CC(CC(C3)C1)C2 — IC50 (Diacylglycerol acyltransferase/mycolyltransferase Ag85C (fbpC, Mycobacterium tuberculosis, UniProt P9WQN9); enzyme activity, inhibitor; 15 min, room temperature, together with: resorufin butyrate): 25000 nM
[H]/N=C(\N/C(=N/[H])NCCCCCCNC(=N)NC(=N)Nc1ccc(Cl)cc1)Nc1ccc(Cl)cc1 — IC50 (N-acetyltransferase Eis (eis, Mycobacterium tuberculosis, UniProt P9WFK7); enzyme activity, inhibitor): 188 ± 30 nM
COc1cc([N+](=O)[O-])c(OC)cc1CCNCc1ccccc1OC — IC50 (SLC6A2; transporter uptake, inhibitor, radiometric): 15000 nM
CCC1CC2CC3c4c(c5cc(O)ccc5n4CC)CCN(C2)C13 (stereo not drawn) — IC50 (Synaptic vesicular amine transporter (Slc18a2, Rattus norvegicus, UniProt Q01827); [3H]5-HT uptake, inhibitor; rat brain synaptic vesicles; together with: [3H]5-HT): 54.3 ± 6.4 nM
C[C@@H]1C[C@H]2CC(=O)CC[C@@H]2[C@@H]2[C@@H]1[C@@H]1CC[C@H](O)[C@@]1(C)C[C@@H]2C — IC50 (Androgen receptor (Ar, Rattus norvegicus, UniProt P15207); ligand displacement, radioligand): 5.5 nM
CNC(C)C(=O)c1ccc(O)c(O)c1 (stereo not drawn) — IC50 (SLC6A3; transporter uptake, inhibitor, radiometric): 25000 nM
COC(=O)[C@H]1[C@@H](OC(=O)c2ccccc2)C[C@@H]2CC[C@H]1N2C — IC50 (Dopamine transporter (Schistosoma mansoni, UniProt E9LD23)): 29400 ± 3900 nM
CCCC(C(=O)c1ccc(O)c(OC)c1)N1CCCC1 (stereo not drawn) — IC50 (SLC6A2; transporter uptake, inhibitor): 1700 nM
COC(=O)[C@H]1[C@@H](c2ccc(Cl)cc2)C[C@H]2CC[C@H]1N2C — IC50 (Sodium-dependent noradrenaline transporter (Mus musculus, UniProt O55192); transporter uptake, inhibitor, radiometric): 2.04 nM
CCCCC/C=C\C/C=C\C/C=C\C/C=C\CCCC(=O)OCCN — IC50 (G-protein coupled receptor 55 (GPR55, Homo sapiens, UniProt Q9Y2T6); β-arrestin2 recruitment, antagonist; U2OS HA-GPR55/βarr2-GFP; 40 min, together with: SR141716A 30 µM): 9440 nM
CCCC(NCC)C(=O)c1ccc2c(c1)OCO2 (stereo not drawn) — IC50 (SLC6A3; transporter uptake, inhibitor, radiometric): 54.9 nM
CNC(C)Cc1ccc(O)c(O)c1 (stereo not drawn) — IC50 (SLC6A3; transporter uptake, inhibitor, radiometric): 9800 nM
CN=c1nc(-c2ccccc2)n(-c2ccccc2)s1 — IC50 (4'-phosphopantetheinyl transferase PptT (Mycobacterium tuberculosis, UniProt O33336); enzyme activity, inhibitor): 800 nM
CCNC(C)C(=O)c1ccc(Cl)cc1 (stereo not drawn) — IC50 (SLC6A3; transporter uptake, inhibitor, radiometric): 931 nM
CCCCC/C=C\C/C=C\C/C=C\C/C=C\CCCC(=O)OCCN — IC50 (Amine oxidase [flavin-containing] B (MAOB, Homo sapiens, UniProt P27338); inhibitor; together with: kynuramine 50 µM): 700 nM
N#C/C(=C\c1ccc(O)c(O)c1)C(=O)c1ccc(O)c(O)c1 — IC50 (dop; enzyme activity, inhibitor; 30 min preincubation, together with: Pup-Glu(AMC) substrate, ATP 1 mM): 130 ± 30 nM
C=CCN1CCC2(C)c3cc(O)ccc3CC1C2C (single isomer, unassigned; (+)) — IC50 (Sigma non-opioid intracellular receptor 1 (Sigmar1, Mus musculus, UniProt O55242); pH 8): 30 ± 2.38 nM
COc1cc(/C=C(\C#N)C(=O)c2ccc(O)c(O)c2)cc(I)c1O — IC50 (dop; enzyme activity, inhibitor; 30 min preincubation, together with: Pup-Glu(AMC) substrate, ATP 1 mM): 520 ± 120 nM
O=c1[nH]c(Cc2cccc3ccccc23)c(-c2ccc(-c3nnn[nH]3)cc2)cc1O — IC50 (PA; enzyme activity, inhibitor, fluorescence): 15 nM
Cc1c(C(=O)c2cccc3ccccc23)c2cccc3c2n1[C@H](CN1CCOCC1)CO3 — IC50 (Potassium channel subfamily K member 18 (KCNK18, Homo sapiens, UniProt Q7Z418); ion flux, inhibitor): 17800 nM
O=C(C1CCCCC1)N1CCN(S(=O)(=O)c2cccc3cnccc23)CC1 — IC50 (Cytochrome P450 3A4 (CYP3A4, Homo sapiens, UniProt P08684); enzyme activity, inhibitor; human liver microsomes): ~1000 nM
CCOC(=O)C=CC(CC1CCNC1=O)NC(=O)C(Cc1ccc(F)cc1)NC(=O)C(Cc1ccccc1)NC(=O)OC(C)(C)C (stereo not drawn) — IC50 (rep main protease; enzyme activity, inhibitor): 20000 nM
c1ccc(CCCN2CCN(CCOC(c3ccccc3)c3ccccc3)CC2)cc1 — IC50 (Equilibrative nucleoside transporter 4 (Slc29a4, Mus musculus, UniProt Q8R139); pH 7.4): 62800 ± 4500 nM
CC(C(=O)c1ccc2c(c1)OCO2)N(C)C (stereo not drawn) — IC50 (SLC6A3; transporter uptake, inhibitor, radiometric): 2220 nM
N#Cc1ccc(-c2cc(O)c(=O)[nH]c2-c2ccc3ccccc3c2)cc1 — IC50 (PA; enzyme activity, inhibitor, fluorescence): 544 nM
CN[C@@](C)(C[18F])C(=O)O — tracer uptake (A549 tumour model; host not given, bone; 30 min, tumour-bearing): 2.3 %ID/g
CCC(CC)O[C@@H]1C=C(C(=O)O)C[C@H](N)[C@H]1NC(C)=O — IC50 (Sialidase A (nanA, Streptococcus pneumoniae, UniProt P62575); neuraminidase activity, inhibitor; total protein of pneumococcal strains; mean of nine strains): 1400 nM
O=c1[nH]c2ccccc2n1C1CCN(CCCC(c2ccc(F)cc2)c2ccc(F)cc2)CC1 — IC50 (Voltage-dependent P/Q-type calcium channel subunit alpha-1A, with β4/α2δ1 (Homo sapiens, UniProt O00555); calcium current, blocker, automated patch clamp; tonic block, holding -90 mV): > 30000 nM
N=C(N)NCCC[C@H](NC(=O)[C@H](Cc1ccccc1)NC(=O)[C@H](N)Cc1ccccc1)C(=O)CCl — IC50 (rep main protease; enzyme activity, inhibitor): 100 nM
O=c1[nH]c(-c2ccc(-c3nnn[nH]3)cc2)c(Cc2ccc3ccccc3c2)cc1O — IC50 (PA; enzyme activity, inhibitor, fluorescence): 81 nM
NC(=O)NCCC[C@H](NC(=O)[C@H](Cc1ccccc1)NC(=O)[C@H](N)Cc1ccccc1)C(=O)CCl — IC50 (rep main protease; enzyme activity, inhibitor): 130 nM
c1ccc(C2(N3CCCCC3)CCCCC2)cc1 — IC50 (Acetylcholine receptor; alpha1/beta1/delta/gamma (Homo sapiens, UniProt P02708+P07510+P11230+Q07001); cell-based): 31000 ± 2000 nM

A few entries again:
c1ccc(CCCN2CCN(CCOC(c3ccccc3)c3ccccc3)CC2)cc1 — IC50 (Equilibrative nucleoside transporter 4 (Slc29a4, Mus musculus, UniProt Q8R139); pH 7.4): 62800 ± 4500 nM
COc1cc(/C=C(\C#N)C(=O)c2ccc(O)c(O)c2)cc(I)c1O — IC50 (dop; enzyme activity, inhibitor; 30 min preincubation, together with: Pup-Glu(AMC) substrate, ATP 1 mM): 520 ± 120 nM
CCOC(=O)C=CC(CC1CCNC1=O)NC(=O)C(Cc1ccc(F)cc1)NC(=O)C(Cc1ccccc1)NC(=O)OC(C)(C)C (stereo not drawn) — IC50 (rep main protease; enzyme activity, inhibitor): 20000 nM
C=CCN1CCC2(C)c3cc(O)ccc3CC1C2C (single isomer, unassigned; (+)) — IC50 (Sigma non-opioid intracellular receptor 1 (Sigmar1, Mus musculus, UniProt O55242); pH 8): 30 ± 2.38 nM
COc1cc([N+](=O)[O-])c(OC)cc1CCNCc1ccccc1OC — IC50 (SLC6A2; transporter uptake, inhibitor, radiometric): 15000 nM
